Results of several laboratories.
Numbered parts are unrelated; each lists some results of a single study.

Set 1 — technique: protein-binding microarray; molecule type: double-stranded DNA, one strand shown; medium: in vitro; tested at: 250 nM; setting: 60-bp whole probe; with: salmon DNA 0.4 mg/ml; relative to: random background probes; reading: higher = stronger binding; shared flanks, not repeated: GCCTAGCAC … GTCTTGATTCGCTTGACGCTGCTG
Target: Interferon regulatory factor 7, full length, phosphomimetic (IRF7, Homo sapiens, UniProt Q92985, residues 1-503, S101K/S471D/S472D/S475D/S476D/S477D/S483D/S484D/S487D)
Residues (chain): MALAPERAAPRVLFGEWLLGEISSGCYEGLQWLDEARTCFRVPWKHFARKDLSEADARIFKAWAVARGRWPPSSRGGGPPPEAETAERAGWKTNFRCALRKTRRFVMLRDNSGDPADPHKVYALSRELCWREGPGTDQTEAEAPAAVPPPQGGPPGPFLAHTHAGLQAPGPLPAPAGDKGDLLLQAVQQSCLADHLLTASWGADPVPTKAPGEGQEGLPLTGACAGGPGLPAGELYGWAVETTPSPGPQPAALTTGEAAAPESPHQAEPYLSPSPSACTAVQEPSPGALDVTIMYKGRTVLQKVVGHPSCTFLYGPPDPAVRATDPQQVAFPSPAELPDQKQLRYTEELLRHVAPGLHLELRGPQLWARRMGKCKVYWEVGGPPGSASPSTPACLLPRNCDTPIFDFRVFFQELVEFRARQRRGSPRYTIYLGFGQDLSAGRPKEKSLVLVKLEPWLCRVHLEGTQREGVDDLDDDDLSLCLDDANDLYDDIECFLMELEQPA
| Oligonucleotide | log fluorescence [z-score] |
| --- | --- |
| GACGGTTTCGACTTTCGGGGCGTGCTA | 10.5 |
| TCACATTCACCTGTCGTACTGTGCTAG | 0.336 |
| GACGATTTCCGGTATCGAGACGTGCTA | 1.33 |
| TTAGATATGGGGTTTCGATTAGTGCTA | 6.07 |
| TTAGGTATCCTACTGCTTAAGTGCTAG | 0.372 |
| GACGTTTCCCTTTTCCTGACGTGCTAG | 3.96 |
| GAACATACTGATTTCCACTTGTGCTAG | 0.693 |
| TTAAAACTGAGTCTCGATTAGTGCTAG | 1.49 |
| TCAACTCTAATCTCACTCACTGTGCTA | 0.0755 |
| TGGTTTTCCTTATTGCTTCCTGTGCTA | 2.96 |
| TTTGAACTGAGTTTCGATTAGTGCTAG | 8.01 |
| GACGAACTTGGGTATCGAGACGTGCTA | -0.475 |
| TTTTTTTTTTTTGTATTTTTGTGCTAG | 0.805 |
| GACGGTCTCGTACTGCTGACGTGCTAG | 0.673 |
| GACCGTTTCGGTATCGGGACGTGCTAG | 5.65 |
| GAGGGACTGCTTATCCTGACGTGCTAG | -0.375 |
| GACGGTATCCTACTGCTGTCGTGCTAG | -0.199 |
| TATGGTTTTTTTTTAATTGAGTGCTAG | 0.661 |
| GACGACATCAGTTTCGAGACGTGCTAG | 3.93 |
| GACGCTTTCGGGTTTCGGGACGTGCTA | 3.93 |
| TTAGGTTTCGGACAGGGTTAGTGCTAG | 2.07 |
| TTAGGTCTCCTTCTCTTTTAGTGCTAG | 0.666 |
| TTAGATATCGGGAATCGATTAGTGCTA | 0.556 |
| TCATTTTTCCCTCTGGAAAAGTGCTAG | 1.91 |
| TCATCTTTTATTTTTTTACTGTGCTAG | 0.734 |

Set 2 — technique: RNA Bind-n-Seq; molecule type: RNA; medium: in vitro; tested at: not given; relative to: input RNA pool; reading: higher = stronger binding
Target: RING finger protein unkempt homolog, zinc fingers 1-6, GST-SBP tag (UNK, Homo sapiens, UniProt Q9C0B0, residues 30-357)
UniProt Q9C0B0, sequence (30-357, looked up): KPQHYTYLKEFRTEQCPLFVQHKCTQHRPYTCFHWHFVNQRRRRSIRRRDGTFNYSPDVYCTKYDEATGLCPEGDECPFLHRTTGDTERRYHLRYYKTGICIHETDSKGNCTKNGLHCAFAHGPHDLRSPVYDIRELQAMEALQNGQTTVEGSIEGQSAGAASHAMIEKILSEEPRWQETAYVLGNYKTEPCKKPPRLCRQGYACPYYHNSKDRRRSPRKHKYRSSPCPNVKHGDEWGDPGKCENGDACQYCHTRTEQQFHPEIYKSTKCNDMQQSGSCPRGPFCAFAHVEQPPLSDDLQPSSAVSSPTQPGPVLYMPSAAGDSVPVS
Setting: RNA with constant flanks, human-mouse chimeric sites, ends assumed
Shared flanks, not repeated: GGGAGUUCUACAGUCCGACGAUC … CAACAGAGGAUUGAGCAUCA
| Oligonucleotide | bound/input enrichment [ratio] |
| --- | --- |
| UUACCCGAGAACGAGGAUGAGCUGGAGAGCACCAACAGGCGCUACACCAAGAGAGACUGCAGCACUUUCCUCAGAACUAGUGAGACGGGCAUCGUGGAUCAGGUUAUGGUCACUCUCAAC | 0.168 |
| ACAGUUAUAUUGUUGAGUUUCAUUUUCAUAUAUUCUUGUAGUGUCUGCUUGCCUGUGUCUUUUAGUAAAAUAAAAUAAGCCUUUGAAAAUAUUUUAGCAUGGUAUUUUUCUAAAAAUAAA | 5.02 |
| UUUGUAUUUAUGCUAAGCACACGUGCUGGUGGUCUGGGCAUCAAUCUUGCAACUGCUGAUGUAGUCAUUUUAUAUGACUCAGAUUGGAAUCCCCAAGUUGAUCUUCAGGCUAUGGACCGU | 0.123 |
| CGCUGGCCCAAGCUGAUGGACUCUGAUGGCCUCCAUCUCUCAGGCACGUGUGCCUUCUCUUAGUCCCUUCUGGGUUGAUGUUAUGAACAGUAUCAUGGUGGUUUGAAAGCACCAGCUUUG | 0.306 |
| GAUCCACAGUGGUCUGAGGAACAGCUGAUUGCUGCAAAAUUCUGUUUUGCUGGCCUUGUUAUAGGGCAGACUGAAGUGGACAUCAUGAGUCAUGCCACACAAGCUAUUUUUGAAAUUCUG | 0.282 |
| GCUCUUGGGAAUGUAAUCAGCGCCUUGGGGGACAAGAGCAAGAGGGCCACCCAUGUCCCUUACAGAGACUCUAAGCUGACAAGACUCUUGCAGGAUUCCCUCGGGGGUAACAGCCAAACC | 0.137 |
| AGAAUCUUGGGACUGUUUUACUUAAUUGGUCAUUGGUAGCUUAACAAACAUGGAGAUGAGAUUAGAAAUCUUGACAUCAACAGGUAUUAAGCAGAAAAAACCAUGGCCACGUGUCUCCUG | 0.112 |
| AUCAAGUACUUUGGGGACAUCAUUAGUGUGGGACAGAGACUGUUGCAAGGAGCUCGGAUCUUAGGGAUUCCAGUUAUCAUAACGGAACAAUACCCCAAAGGACUUGGCAGCACCGUUCAA | 0.189 |
| GGACAUCUGUCAAAUUGUUAUGUUCCUGUGAAACAAGUGAACACUCUGAUACACUUCAUUUAGUUGUACAUUUAACUGAUAGAGAAAUGUAAAUAUGUUAAUCCAAGCAAUGUGUCACUU | 0.472 |
| CUUAAUGUUAAUAUUUUUGAAUAAAUGUAAAACCAUGGUCUGCUUUUGGUACAACACGCAUUAAUAAAAGGUUAAGUUUUGUUUUCCACUGAAGUACGUAAUACUUACUCAGAAAAAAAC | 0.434 |
| AUAUUUCAUAUUGCAAAGAUGUUUACAAGUAUUUUAAUUUAAGUUCAGUGAACUUUUUUGUAGCUGGGUUAAAUCUUUUUAUUUUUAGUAUGGCCUUUGGCAAAGAACACUGUAUUAUUU | 1.3 |

Set 3 — technique: protein binding microarray; molecule type: double-stranded DNA, one strand shown; medium: in vitro; tested at: not given; relative to: not given; reading: higher = stronger binding
Target: Histone acetyltransferase KAT6A, winged helix 2, GST fusion (KAT6A, Homo sapiens, UniProt Q92794, residues 85-181)
Setting: 8-mer, flanks averaged, mean of 2 arrays, mostly near background
Target sequence (chain): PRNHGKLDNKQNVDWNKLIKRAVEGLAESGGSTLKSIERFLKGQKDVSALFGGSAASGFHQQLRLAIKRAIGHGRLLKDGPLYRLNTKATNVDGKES
| Oligonucleotide | E-score |
| --- | --- |
| CAAAGCGC | 0.0664 |
| ACCCAGGC | 0.283 |
| ATCGCAAT | 0.0252 |
| GTTTCCAA | -0.0185 |
| CTCAAGCA | -0.00249 |
| GCGCAAGC | 0.134 |
| TCGACCGA | 0.156 |
| CAGACAGA | 0.139 |
| ATTGTGAA | -0.0714 |
| AACGGCCC | 0.0565 |
| CATCGCTC | 0.0903 |
| ACTCAGAT | -0.0412 |
| AGTCTCCC | -0.117 |
| GCATGCTA | -0.0644 |
| ATTGGTTC | 0.0869 |
| AACGGAAT | 0.00275 |

Set 4 — technique: RNA Bind-n-Seq; molecule type: RNA; medium: in vitro; tested at: 365 nM; relative to: no-protein control; reading: higher = stronger binding
Target: RNA binding protein fox-1 homolog 2, RRM domain, GST-SBP tag (RBFOX2, Homo sapiens, UniProt O43251-10, residues 100-194)
Setting: natural RNA segment, single round, ends assumed
Shared flanks, not repeated: GGGAGUUCUACAGUCCGACGAUC … UGGAAUUCUCGGGUGCCAA
Residues (chain): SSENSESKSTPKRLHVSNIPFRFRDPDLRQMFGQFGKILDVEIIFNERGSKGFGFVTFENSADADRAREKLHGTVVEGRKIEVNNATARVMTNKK
| Oligonucleotide | RBNS enrichment (R) |
| --- | --- |
| CUGAUAGAAUCUGUAAGCUAAUAAAAAAUAUAAGAAAAAGGUUAAAAAAAAAAGAAUAGGUAAAUUGACAAGAAAUAUUUAUUGUUUUCCCUUAUUGCCUUAUUGUCCCU | 0.471 |
| GAGAAAGUUUGCUGACUUUUGUAACAUUGGCUGCCUUUGUGCAGAAGAAAAAAACAUGGUAGGGAAGGAGCUCUGCUGCCUCUUUGCCCUACAACCAUGGCAUUGCAAAA | 0.432 |
| AAAAAUAAAAAAAUAUGUCUUCACAUAUCCCUCAUAGCUGUCUGCCUCUUGUCUGCAAUAGGAUGUUCAUGUACAAAAGUGGUUUUCUUUAAUAAAAGGUGGAAACAUUG | 0.52 |
| GGUAUCUUCAGCUGUUUCUUCUAUUGCUGGAUUUUCUGUUCCUUUUCCCCAGUGUUCUGUUUUCUUUGAGUGUAAUGACCCACAAGUGUCCUGCCAUUAAGAGAGGUCAG | 0.358 |
| UACAUAGUAAUUUUGGUUCUGAAUUUUACAUUAAAUUAUUUGAAUAUAUACAGACCUAAAUUUUAAAAUCUGUACAUAUAUUAUUUUGAUGUAUUAAGAUUGAUAAUAUU | 0.745 |
| GGAGACAUGCCACCAACAUAGACAGGUUGGUCACCGAUGGCCAUUUUCAUAAAUAUUUCUGUGGGCCAUUUUGCUUUGCUUGUUUGUGAAAAGAAUUGUCUCUAAUUAUU | 0.548 |
| GUGCACCUUGAAUGUAGUAUUUGAAAAGCUUCCCACUUGCAGCUUUACACGUUUGUUAGCACUAGUUCUGAAUUUGUGUAGGUCUCAACCUUUCAGGACAUCUGGGUCUA | 0.889 |
| GCACCCCGGAACCGGCGUCGCUGGCGCAUCCUGGGUGGAGGCAGGCCCCGAGCUCGGGGAAGGGGUUUUCCCUUCCUCUCUGACCCAGAUCUGCGCGCGGCCUAGCCCGG | 0.206 |
| GGAUAAAUCCCUUCCCUAUUGACCUUCUUACAUAGUGCAAGCAAUAAGACUUAUUGAUCUGUGUGUAUCCCAGUGUUCCUCUGGGGUUCUGUCUAAACACCAACCAUCUU | 0.805 |
| GGAUCAUAAAUUCUUUCCCUAUAACAUUCCUUCUCUGCCUCUCUAUGGCCCACUUUGACCACUAACAACAUCAGAAUUAUCUACAUCAAUUUCAUUGAGCCAUUGGUGAA | 0.927 |
| CAAAGAAAAAUUAAGCCUCCCAAUCUUAGGAUCCAAUUGUGCAGUAGAAUUCAGAGACUUCUCAUUCAAUCUUGUAUCCUAUGCAGCUACAAAUAUUUUUUAAAUGUUAG | 0.55 |
| UUGGAGGUCACAAGCAGCUGGCCAGGGUAAUGUCCCUUGGUCCAUGGGGCUGUGGCCCGUGCUGUAGUCUAUGGGCUCCUCCGUUCAAGCUGCAGCCCUGCUGGUCCCUU | 0.272 |

Set 5 — technique: universal PBM; molecule type: double-stranded DNA, one strand shown; medium: in vitro; tested at: not given; reading: higher = stronger binding
Target: Sal-like protein 4, full length isoform B (SALL4, Homo sapiens, UniProt Q9UJQ4-2, residues 1-616)
Setting: 8-mer, flanks averaged, mean of replicates
| Oligonucleotide | E-score |
| --- | --- |
| ATACCACG | 0.0808 |
| GCAAGATA | 0.189 |
| ACATAAGG | 0.214 |
| ATGTGCAG | 0.114 |
| GACCCCTA | -0.151 |
| CGGTAAAA | 0.14 |
| AATTGAAA | 0.231 |
| ATGGATCG | -0.0129 |
| ATGTTCCC | -0.116 |
| GACGGGCA | -0.163 |
| TGTGTGAA | 0.0563 |
| CTGGATGA | -0.0677 |
| AGGTAGCA | -0.0364 |
| GATTTATA | 0.295 |
| AAGGCTAC | -0.0543 |
| CGAGTTCA | -0.0383 |
| GAGAGAAA | -0.00456 |
| AGTATACC | 0.209 |
| GATATTGA | 0.266 |
| GGCCCTAA | -0.13 |
| CTCCTGAA | -0.0348 |
| CATCAACG | -0.0143 |
| GGGCCCAA | -0.159 |
| CCCACGAA | -0.136 |
| GTCGCTCA | -0.135 |

Repeated from above (set 5):
| Oligonucleotide | E-score |
| --- | --- |
| ATGTGCAG | 0.114 |
| GACCCCTA | -0.151 |
| CGGTAAAA | 0.14 |
| AATTGAAA | 0.231 |
| ATGGATCG | -0.0129 |
| ATGTTCCC | -0.116 |
| GACGGGCA | -0.163 |
| TGTGTGAA | 0.0563 |
| CTGGATGA | -0.0677 |
| AGGTAGCA | -0.0364 |
| GATTTATA | 0.295 |
